# Measured values from different studies.
# Protocols differ between the studies behind these lines. Values joined by “and” are separate records of one study, mostly repeats; a detail may differ.
Structure (SMILES),test,system,conditions,scale,measurement,result
C=CCN1CCC23c4c5ccc(OC(=O)c6ccc(NC(=O)OC(C)(C)C)cc6)c4OC2C(=O)CCC3(O)C1C5 (stereo not shown),,rat plasma,"0 h, with: loperamide 100 µM",,remaining compound,97.6% and 98.3% and 104%
Cc1nnc(-c2ccc(CC(=O)NCCCC[C@H](NC(=O)c3ccc(OCc4ccc(B(O)O)cc4)c(-c4nc5ccccc5c(=O)[nH]4)c3)C(=O)NCC(=O)NCC(=O)NCC(=O)N[C@@H](Cc3ccccc3)C(=O)N[C@@H](Cc3ccccc3)C(=O)O)cc2)nn1,UPLC-MS/MS,human serum,"100 µM, 2.5 h, 37 °C",,remaining compound,67.5%
CC[C@H](C)[C@H](NC(=O)[C@H](CCC(N)=O)NC(=O)[C@@H](NC(=O)[C@@H]1CCCN1[C@@H]1CN(C(=O)[C@H](CCCCN)NC(=O)[C@H](CC(N)=O)NC(=O)[C@@H](NC(=O)[C@@H](NC(=O)[C@H](CCC(N)=O)NC(=O)[C@@H](N)C(C)C)[C@@H](C)CC)[C@@H](C)CC)CC[C@H]1NS(=O)(=O)c1ccc(C)cc1)C(C)C)C(=O)N[C@H](C(=O)N[C@@H](Cc1ccc(O)cc1)C(=O)N[C@@H](CCCCN)C(N)=O)C(C)C,LC-MS,pronase digest,"200 µM, 30 min, pH 7.5, 37 °C, with: pronase 2.5 µg/mL",,remaining intact peptide,84%
CCN(CC)CCOc1ccc(-c2nnn(Cc3ccc(OC)cc3)c2N)cc1,,human liver microsomes,"concentration not given, time not given",,remaining compound,73.4%
C=CCN1CCC23c4c5ccc(OC(=O)c6ccccc6)c4OC2C(=O)CCC3(O)C1C5 (stereo not shown),,human plasma,0 h,,remaining compound,104% and 99.4% and 96.3%
C#Cc1c(F)ccc2cc(O)cc(-c3ncc4c(N5CC6CCC(C5)N6C(=O)OC(C)OC(=O)c5ccccc5)nc(OC[C@@]56CCCN5C[C@H](F)C6)nc4c3F)c12 (stereo partly shown),,simulated gastric fluid,"1 µM, 30 min, 37 °C",,remaining prodrug,99.6%
C=CCN1CCC23c4c5ccc(OC(=O)c6ccc(N)cc6)c4OC2C(=O)CCC3(O)C1C5 (stereo not shown),,rat plasma,"0 h, with: loperamide 100 µM",,remaining compound,103% and 99% and 98.2%
C#Cc1c(F)ccc2cc(O)cc(-c3ncc4c(N5CC6CCC(C5)N6C(=O)OC(C)OC(C)=O)nc(OC[C@@]56CCCN5C[C@H](F)C6)nc4c3F)c12 (stereo partly shown),,simulated gastric fluid,"1 µM, 30 min, 37 °C",,remaining prodrug,94.6%
CCCCCCCCCCCC(=O)C(C)C(=O)N1CCC[C@H]1C(=O)NC(C)(C)C(=O)NC(C)(C)C(=O)NC(C)(C)C(=O)N[C@](C)(CC)C(=O)NCCC(=O)N[C@@H](C)C(=O)N[C@](C)(CC)C(=O)N[C@@H](C)C(=O)N[C@@H](CC(C)C)C(=O)N[C@](C)(CC)C(=O)NCCC(=O)N[C@@H](C)C(=O)N[C@](C)(CC)C(=O)NCCC(=O)N[C@@H](C)C(=O)NC(C)(C)C(=O)NC(C)(C)C(=O)NC(C)(C)C(=O)N[C@@H](C)C(=O)N[C@@H](CC(=O)O)C(=O)O (stereo partly shown),LC-MS,buffer with human neutrophil elastase,"40 µM, 20 min, pH 7.5, 37 °C",relative to: 0 h,remaining intact peptide,76.2% and 75.9% and 72.6%
CC(C)[C@@H]1NC(=O)CNC(=O)[C@H](CC(N)=O)NC(=O)[C@H](CCCNC(=N)N)NC(=O)[C@H](Cc2ccc(O)cc2)NC(=O)[C@H](C(C)C)NC(=O)[C@@H](NC(=O)[C@@H](NC(=O)[C@H](CC(N)=O)NC(=O)[C@H](Cc2c[nH]c3ccccc23)NC(=O)[C@H](C)NC(=O)[C@H](Cc2ccccc2)NC(=O)CNC(=O)[C@H](CCCCN)NC(=O)[C@H](Cc2ccccc2)NC(=O)[C@H](Cc2ccccc2)NC(=O)[C@H](CCCCN)NC(=O)OCC2c3ccccc3-c3ccccc32)C(C)C)CSSC[C@@H](C(=O)N[C@@H](Cc2c[nH]cn2)C(=O)N[C@@H](CCCNC(=N)N)C(=O)N[C@@H](CCCNC(=N)N)C(=O)N[C@@H](C)C(=O)N[C@@H](CC(N)=O)C(N)=O)NC(=O)[C@H](C(C)C)NC(=O)[C@H](CCCNC(=N)N)NC1=O,HPLC,mouse mammary gland homogenate,"2560 µM, 16.00 h, 37 °C, 50 mg/mL tissue",,remaining peptide,53.2% and 59.3% and 58%

# Excerpt of the above:
Structure (SMILES),test,system,conditions,scale,measurement,result
CC[C@H](C)[C@H](NC(=O)[C@H](CCC(N)=O)NC(=O)[C@@H](NC(=O)[C@@H]1CCCN1[C@@H]1CN(C(=O)[C@H](CCCCN)NC(=O)[C@H](CC(N)=O)NC(=O)[C@@H](NC(=O)[C@@H](NC(=O)[C@H](CCC(N)=O)NC(=O)[C@@H](N)C(C)C)[C@@H](C)CC)[C@@H](C)CC)CC[C@H]1NS(=O)(=O)c1ccc(C)cc1)C(C)C)C(=O)N[C@H](C(=O)N[C@@H](Cc1ccc(O)cc1)C(=O)N[C@@H](CCCCN)C(N)=O)C(C)C,LC-MS,pronase digest,"200 µM, 30 min, pH 7.5, 37 °C, with: pronase 2.5 µg/mL",,remaining intact peptide,84%
Cc1nnc(-c2ccc(CC(=O)NCCCC[C@H](NC(=O)c3ccc(OCc4ccc(B(O)O)cc4)c(-c4nc5ccccc5c(=O)[nH]4)c3)C(=O)NCC(=O)NCC(=O)NCC(=O)N[C@@H](Cc3ccccc3)C(=O)N[C@@H](Cc3ccccc3)C(=O)O)cc2)nn1,UPLC-MS/MS,human serum,"100 µM, 2.5 h, 37 °C",,remaining compound,67.5%
